Assay results of several laboratories.
Each line is one published result; not all experiments were run side by side. Values joined by “and” are separate records of one study, mostly repeats; a detail may differ. ± gives the spread as reported.

Compound | cell line | test | system | setting | scale | endpoint | result
CC(C)N1CCC(NC2CCN(c3cccc(-c4cc5cc(F)ccc5[nH]4)c3)CC2)CC1 | NCI-H23 | – | – | – | – | GI50 | 1710 nM
CCN(CC)c1ccc(C=NNC(=O)CSc2nc3ccccc3c(=O)n2Cc2ccc(S(N)(=O)=O)cc2)c(O)c1 | HCC 2998 | NCI five-dose screen | – | – | – | CC50 | > 100000 nM
O=c1c(O)c(-c2ccc(O)c(O)c2)oc2cc(O)cc(O)c12 | induced SH-SY5Y Aβ-GFP cells | – | – | 5 µM | – | neurite process number | 3.5 to 3.6
C/C=C(/C)C(=O)O[C@H]1C(C)=C2[C@H]([C@@H]1OC(=O)CCCCCCC)[C@@](C)(OC(C)=O)C[C@H](OC(=O)CCC)[C@@]1(O)[C@H]2OC(=O)[C@@]1(C)O | HEK293T | RNA-seq, measured: DNAJB1 mRNA | – | 10 µM, 6 h | reference: vehicle | log2 fold change | -1.25
CC[C@H](C)[C@H](NC(=O)[C@H](CCCCN)NC(=O)[C@@H](NC(=O)[C@H](C)NC(=O)[C@H](CC(C)C)NC(=O)[C@H](CCCCN)NC(=O)[C@H](Cc1ccccc1)NC(=O)[C@H](CC(C)C)NC(=O)[C@H](Cc1c[nH]cn1)NC(=O)CNC(=O)[C@H](Cc1ccccc1)NC(=O)[C@@H](N)Cc1ccccc1)[C@@H](C)O)C(=O)N[C@H](C(=O)N1CCC[C@H]1C(=O)N[C@@H](CO)C(=O)N[C@@H](CC(C)C)C(=O)N[C@@H](Cc1ccccc1)C(=O)N[C@@H](CCC(N)=O)C(=O)N[C@@H](CS)C(N)=O)[C@@H](C)CC | human red blood cells | – | – | pH 5.5 | reference: Triton X-100 | EC50 | 20000 nM
O=C(N/N=C/c1ccc(Sc2ccccn2)s1)c1cccc(F)c1 | D458 medulloblastoma | – | – | – | – | GI50 | 1900 nM
CC(C)[C@@H](CS(=O)(=O)C(C)C)N1C(=O)[C@@](C)(CC(=O)O)C[C@H](c2cccc(Cl)c2)[C@H]1c1ccc(Cl)cc1 | cultures, short-term, GBM PDX, MDM2-amplified | YOYO-3 live-cell imaging | – | 30 nM, 72 h | – | cell death | increased
COc1ccc2c(c1)[nH]c1c(C)nccc12 | DU-145 | bisulfite pyrosequencing, measured: RASSF1A promoter CpG site 21 | – | 10 µM, 16 h | – | DNA methylation | 92.9%
COP(=O)(OC)OC=C(Cl)Cl | human iPSC-derived cardiomyocytes | MyBP-C/MYH ratio, plate-normalised SD score | – | concentration not given, primary screen | direction not given | activity score | 3.3
CN1C(=O)[C@@]23C[C@]4([C@]56C[C@@]78SS[C@@](CO)(C(=O)N7[C@H]5Nc5ccccc56)N(C)C8=O)c5ccccc5N[C@@H]4N2C(=O)[C@]1(CO)SS3 | HBL-1 | – | – | 0.1 µM, 120 h | – | viability | 0.616%
CN[C@@H]1C[C@H]2O[C@@](C)([C@@H]1OC)n1c3ccccc3c3c4c(c5c6ccccc6n2c5c31)C(=O)NC4 | iCell Cardiomyocytes (hiPSC-derived) | cellular impedance | – | concentration not given, 24 h | reference: control | cell index | 16.1%
O=S(=O)(c1ccc(O)cc1)c1ccc(O)cc1 | HepG2 spheroids | Hoechst flow cytometry | – | 1 µM, 96 h | – | G2 phase cells | 15.4 ± 5.04%
CCC(=O)CCCCC[C@@H]1NC(=O)[C@H]2CCCCN2C(=O)[C@H]([C@@H](C)CC)NC(=O)[C@H](Cc2cn(OC)c3ccccc23)NC1=O | HBL-1 | – | – | 0.1 µM, 120 h | – | viability | 40%
CC(=O)Nc1cc([As](=O)(O)O)ccc1O | human iPSC-derived cardiomyocytes | MyBP-C/MYH ratio, plate-normalised SD score | – | concentration not given, primary screen | direction not given | activity score | 3.1
Cc1cc(NS(=O)(=O)c2ccc(NC(=O)/C(C#N)=C/c3ccc(N4CCCCC4)cc3)cc2)no1 | HCT-116 | qRT-PCR, measured: survivin | – | concentration not given | reference: untreated | mRNA level decrease | 3.7 fold
C[C@]12CC[C@H](O)C[C@H]1CC[C@@H]1[C@@H]2CC[C@]2(C)[C@@H](c3ccc(=O)oc3)CC[C@]12O | MCF7 | RT-qPCR, measured: AGR2 | – | 20 nM, 48 h, unit not given, together with: estradiol | reference: untreated | mRNA level | 1.88 and 1.8 and 1.84
COC(=O)C1=CCCN(C)C1 | human iPSC-derived cardiomyocytes | MyBP-C/MYH ratio, plate-normalised SD score | – | concentration not given, primary screen | direction not given | activity score | 4
CN1CCN(S(=O)(=O)c2cc([N+](=O)[O-])ccc2N(CCOS(C)(=O)=O)CCOS(C)(=O)=O)CC1 | sample E T-ALL PDX cells | cell viability | ex vivo | 48 h | – | IC50 | 12.7 nM
CC(=O)O[C@H]1CC[C@]2(C=O)[C@H]3CC[C@]4(C)[C@@H](C5=CC(=O)OC5)CC[C@]4(O)[C@@H]3CC[C@]2(O)C1 | human iPSC-derived cardiomyocytes | MyBP-C/MYH ratio, plate-normalised SD score | – | concentration not given, primary screen | direction not given | activity score | 7.7
CC[C@H](C)[C@H](NC(=O)CN)C(=O)NCC(=O)N[C@@H](C)C(=O)N[C@H](C(=O)N[C@@H](CC(C)C)C(=O)N[C@@H](CCCCN)C(=O)N[C@H](C(=O)N[C@@H](CC(C)C)C(=O)N[C@H](C(=O)N[C@H](C(=O)NCC(=O)N[C@@H](CC(C)C)C(=O)N1CCC[C@H]1C(=O)N[C@@H](C)C(=O)N[C@@H](CC(C)C)C(=O)N[C@H](C(=O)N[C@@H](CO)C(=O)N[C@@H](Cc1c[nH]c2ccccc12)C(=O)N[C@H](C(=O)N[C@@H](Cc1c[nH]cn1)C(=O)N[C@@H](Cc1c[nH]cn1)C(=O)N[C@@H](Cc1c[nH]cn1)C(=O)N[C@@H](Cc1c[nH]cn1)C(=O)N[C@@H](CCC(=O)O)C(=O)N[C@@H](CCC(=O)O)C(=O)N[C@@H](CS)C(N)=O)[C@@H](C)CC)[C@@H](C)CC)[C@@H](C)O)[C@@H](C)O)C(C)C)C(C)C | human red blood cells | – | – | pH 7.4 | reference: Triton X-100 | EC50 | 9000 nM
CC(C)(C)c1cc(C=C(C#N)C#N)cc(Br)c1O | HeLa expressing Ub(G76V)-GFP | Ub(G76V)-GFP degradation, inhibitor, cycloheximide chase | – | 12 µM | – | inhibition | 23%
O=C1N(Cc2ccccc2Cl)c2ccccc2C12NN=C(c1ccccc1)S2 (stereo not drawn) | MDA-MB-468 | gene expression array, measured: TFPT mRNA | – | 10 µM, 12 h | reference: untreated, up | fold change | 1.59
Oc1ccc(C(c2ccc(O)cc2)(C(F)(F)F)C(F)(F)F)cc1 | HepG2 spheroids | Hoechst flow cytometry | – | 1 µM, 96 h | – | G1 phase cells | 75.3 ± 6.83%
COc1c(CCC[P+](c2ccccc2)(c2ccccc2)c2ccccc2)cc2c(c1OC)OCO2.[I-] | LOX IMVI | SRB | – | – | – | Log10LC50 | -4.35 log M
Cn1nccc1Nc1nccc(-c2cc3c(s2)C(C)(C)N(CCN2CCOCC2)C3=O)n1 | HCT116 | IncuCyte | – | concentration not given, 40 (unit not given) | – | PI-positive cells | 24.5 count and 14.5 count and 21.4 count
C[C@]12CC[C@H]3[C@@H](CC[C@]4(O)C[C@@H](O)CC[C@]34C=O)[C@@]1(O)CC[C@@H]2C1=CC(=O)OC1 | human iPSC-derived cardiomyocytes | MyBP-C/MYH ratio, plate-normalised SD score | – | concentration not given, primary screen | direction not given | activity score | 4.4
COc1cccc2c1C(=O)c1c(O)c3c(c(O)c1C2=O)C[C@@](O)(C(=O)CO)C[C@@H]3O[C@H]1C[C@H](N)[C@H](O)[C@H](C)O1 | SCC-40 | sulforhodamine B | – | 10 µg/mL, 48 h | negative means cell kill | growth percent | -73.7%
CC[C@H](C)[C@H](NC(=O)[C@H](Cc1c[nH]c2ccccc12)NC(=O)[C@H](CO)NC(=O)[C@H](C)NC(=O)[C@H](CC(C)C)NC(=O)[C@H](C)NC(=O)[C@H](CC(C)C)NC(=O)[C@H](C)NC(=O)[C@H](CCC(=O)O)NC(=O)[C@H](C)NC(=O)[C@H](CCC(=O)O)NC(=O)[C@H](C)NC(=O)[C@H](CCC(=O)O)NC(=O)[C@H](C)NC(=O)[C@H](CC(C)C)NC(=O)[C@H](C)NC(=O)[C@H](CC(C)C)NC(=O)[C@H](Cc1c[nH]c2ccccc12)NC(=O)[C@H](Cc1c[nH]c2ccccc12)NC(=O)CN)C(=O)N[C@@H](CCCCN)C(=O)N[C@@H](CCCNC(=N)N)C(=O)N[C@@H](CCCCN)C(=O)N[C@@H](CCCNC(=N)N)C(=O)N[C@@H](CCC(N)=O)C(=O)N[C@@H](CCC(N)=O)C(=O)N[C@@H](CS)C(N)=O | human red blood cells | – | – | pH 5.5 | reference: Triton X-100 | EC50 | 75000 nM
CC(c1ccccc1)(c1ccc(O)cc1)c1ccc(O)cc1 | HepG2 spheroids | Hoechst flow cytometry | – | 1 µM, 96 h | – | G2 phase cells | 17.8 ± 6.77%
Nc1ncc(-c2nc(N3CCOCC3)nc(N3CCOCC3)n2)c(C(F)F)n1 | RKO | – | – | 72 h | – | GI50 | 180 nM

For quick reference, copied from above:
Compound | cell line | test | system | setting | scale | endpoint | result
CC(C)[C@@H](CS(=O)(=O)C(C)C)N1C(=O)[C@@](C)(CC(=O)O)C[C@H](c2cccc(Cl)c2)[C@H]1c1ccc(Cl)cc1 | cultures, short-term, GBM PDX, MDM2-amplified | YOYO-3 live-cell imaging | – | 30 nM, 72 h | – | cell death | increased
COc1ccc2c(c1)[nH]c1c(C)nccc12 | DU-145 | bisulfite pyrosequencing, measured: RASSF1A promoter CpG site 21 | – | 10 µM, 16 h | – | DNA methylation | 92.9%
COP(=O)(OC)OC=C(Cl)Cl | human iPSC-derived cardiomyocytes | MyBP-C/MYH ratio, plate-normalised SD score | – | concentration not given, primary screen | direction not given | activity score | 3.3
